{"data": "Assay results from different studies", "note": "Each line is one published result; not all experiments were run side by side. ± gives the spread as reported.", "chain of UniProt P36507 (whole entry, looked up)": "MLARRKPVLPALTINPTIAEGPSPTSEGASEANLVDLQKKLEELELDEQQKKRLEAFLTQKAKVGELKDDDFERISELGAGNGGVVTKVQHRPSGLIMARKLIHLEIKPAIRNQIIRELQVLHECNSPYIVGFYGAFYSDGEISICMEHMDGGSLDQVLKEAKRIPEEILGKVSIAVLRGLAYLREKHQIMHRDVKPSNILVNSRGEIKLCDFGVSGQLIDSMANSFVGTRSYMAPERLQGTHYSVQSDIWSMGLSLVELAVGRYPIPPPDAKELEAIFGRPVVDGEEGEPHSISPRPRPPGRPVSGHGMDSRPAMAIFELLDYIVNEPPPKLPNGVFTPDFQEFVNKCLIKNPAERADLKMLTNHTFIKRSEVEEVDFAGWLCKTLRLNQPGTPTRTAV", "chain of UniProt P08631 (whole entry, looked up)": "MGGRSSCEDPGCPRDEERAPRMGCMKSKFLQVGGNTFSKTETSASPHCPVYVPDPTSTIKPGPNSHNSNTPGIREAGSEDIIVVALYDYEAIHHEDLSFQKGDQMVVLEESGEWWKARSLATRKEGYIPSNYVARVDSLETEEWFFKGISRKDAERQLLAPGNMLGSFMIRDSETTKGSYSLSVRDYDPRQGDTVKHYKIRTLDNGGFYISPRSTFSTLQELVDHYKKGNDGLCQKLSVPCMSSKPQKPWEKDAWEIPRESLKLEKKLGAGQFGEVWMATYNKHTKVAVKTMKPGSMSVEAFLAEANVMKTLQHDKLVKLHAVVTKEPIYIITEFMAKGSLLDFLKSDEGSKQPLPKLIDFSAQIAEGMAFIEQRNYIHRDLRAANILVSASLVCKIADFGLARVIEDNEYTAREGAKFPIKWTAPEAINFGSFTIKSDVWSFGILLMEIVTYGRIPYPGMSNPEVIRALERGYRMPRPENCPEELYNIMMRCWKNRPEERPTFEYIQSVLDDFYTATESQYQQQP", "chain of UniProt P46663 (whole entry, looked up)": "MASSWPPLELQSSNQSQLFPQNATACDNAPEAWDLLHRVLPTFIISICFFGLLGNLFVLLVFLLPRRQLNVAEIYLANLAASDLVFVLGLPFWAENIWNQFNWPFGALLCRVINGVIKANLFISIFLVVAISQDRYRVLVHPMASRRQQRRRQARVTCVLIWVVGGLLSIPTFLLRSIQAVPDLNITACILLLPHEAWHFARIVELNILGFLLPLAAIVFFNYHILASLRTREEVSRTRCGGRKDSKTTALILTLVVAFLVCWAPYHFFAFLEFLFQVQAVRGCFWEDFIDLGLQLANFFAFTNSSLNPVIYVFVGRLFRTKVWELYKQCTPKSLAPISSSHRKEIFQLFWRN"}
{"Compound": "CCn1ccc(-c2cc(-c3cnn(C)c3)cc([C@@H](C)NC(=O)c3cc(OCCN(C)C)ccc3C)c2)n1", "test system": "C57BL/6J mice, male, plasma", "setting": "oral, 50 mg/kg", "quantity": "AUC(0-inf)", "value": "22800 ng·h/mL"}
{"Compound": "CS(C)(=O)=Nc1ccc(-c2ccc(-c3nc4cc(O[C@@H]5CO[C@H]6[C@@H]5OC[C@H]6O)[nH]c4cc3F)cc2)cc1", "tested on": "BDKRB1 (Homo sapiens, UniProt P46663)", "test": "calcium signal, antagonist", "setting": "10 µM", "quantity": "inhibition", "value": "30%"}
{"Compound": "NC1CCN(C(=O)Oc2ccc(C3CCCC4(C3)OOC3(O4)C4CC5CC(C4)CC3C5)cc2)CC1 (racemic)", "test system": "male ICR mice, plasma", "setting": "oral, 50 mg/kg", "scale": "reference: intravenous 10 mg/kg", "quantity": "oral bioavailability", "value": "120%"}
{"Compound": "CN1Cc2cc(Cl)ccc2-n2c(nnc2C2CCN(c3cccc([18F])n3)CC2)C1", "test system": "C57BL/6 mouse male, kidney", "setting": "intravenous, 3.7 MBq, 60 min", "quantity": "tissue uptake", "value": "6.88 ± 0.35 %ID/g"}
{"Compound": "N#[11C]c1ccc(-c2csc(NN=C3CCCC3)n2)cc1", "test": "dynamic PET/CT", "test system": "C57BL/6 mouse, liver", "setting": "intravenous, dose not given, 60 min", "quantity": "radioactivity uptake", "value": "0.8 SUV"}
{"Compound": "CCCCC(CC)COC(=O)CC(C(=O)OCC(CC)CCCC)S(=O)(=O)O.CCCSc1ccc2[nH]c(NC(=O)OC)nc2c1 (stereo not shown)", "test": "visual inspection", "test system": "Labrasol", "quantity": "solubility", "value": "~30 mg/mL"}
{"Compound": "CCCCCCCCCCCCCCCC(=O)N[C@@H](CCC(=O)NCCCC[C@H](NC(=O)[C@H](CC(=O)O)NC(=O)[C@H](CO)NC(=O)[C@@H](NC(=O)[C@H](Cc1ccccc1)NC(=O)[C@@H](NC(=O)CNC(=O)[C@H](CCC(N)=O)NC(=O)[C@H](C)NC(=O)[C@@H](Cc1ccc(O)cc1)NC(C)=O)[C@@H](C)O)[C@@H](C)O)C(=O)N[C@@H](CO)C(=O)N[C@@H](CCCCN)C(=O)N[C@@H](Cc1ccc(O)cc1)C(=O)N[C@@H](CC(C)C)C(=O)N[C@@H](CC(=O)O)C(=O)N[C@@H](CCC(=O)O)C(=O)N[C@@H](CCCNC(=N)N)C(=O)N[C@@H](C)C(=O)N[C@@H](C)C(=O)N[C@@H](CCC(N)=O)C(=O)N[C@@H](CC(=O)O)C(=O)N[C@@H](Cc1ccccc1)C(=O)N[C@H](C(=O)N[C@@H](CCC(N)=O)C(=O)N[C@@H](Cc1c[nH]c2ccccc12)C(=O)N[C@@H](CC(C)C)C(=O)N[C@@H](CC(C)C)C(=O)N[C@@H](CCC(=O)O)C(=O)NCC(=O)NCC(=O)N1CCC[C@H]1C(=O)N[C@@H](CO)C(=O)N[C@@H](CO)C(=O)NCC(=O)N[C@@H](C)C(=O)N1CCC[C@H]1C(=O)N1CCC[C@H]1C(=O)N1CCC[C@H]1C(=O)N[C@@H](CO)C(N)=O)C(C)C)C(=O)O", "test system": "male cynomolgus monkey, plasma", "setting": "subcutaneous, 0.0161 mg/kg", "quantity": "Cmax", "value": "120 ng/mL"}
{"Compound": "O=C1NC2(CC2)COc2ncc(F)cc2[C@H]2COCCN2c2ccn3ncc1c3n2", "test system": "Sprague-Dawley rat, female, blood", "setting": "oral, 10 mg/kg/day, 4 weeks, end of treatment, subacute toxicity", "quantity": "neutrophil percentage", "value": "36.2 ± 12.5%"}
{"Compound": "CC[C@H](C)[C@H](NC(=O)[C@H](C)NC(=O)[C@H](CCCCN)NC(=O)[C@H](CC(C)C)NC(=O)[C@@H](N)Cc1ccccc1)C(=O)N[C@@H](CCCCN)C(=O)N[C@@H](CCCCN)C(=O)N[C@@H](Cc1ccccc1)C(=O)NCC(=O)N[C@@H](CCCCN)C(=O)N[C@@H](CCC(=O)O)C(=O)N[C@@H](Cc1ccccc1)C(=O)N[C@@H](CCCCN)C(=O)N[C@@H](CCCCN)C(=O)N[C@H](C(=O)NCC(=O)N[C@@H](C)C(=O)N[C@@H](CCCCN)C(=O)N[C@@H](CC(C)C)C(=O)N[C@@H](CCCCN)C(=O)O)[C@@H](C)CC", "test system": "human red blood cells", "setting": "32 mg/L, 1 h", "quantity": "hemolysis", "value": "1.06%"}
{"Compound": "CC(C)C[C@@H](NC(=O)[C@@H](CCCNC(=N)N)NC(=O)[C@@H](Cc1c[nH]cn1)NC(=O)[C@@H](Cc1c[nH]c2ccccc12)NC(=O)[C@@H](Cc1c[nH]cn1)NC(=O)[C@@H](Cc1ccccc1)NC(=O)[C@H](NC(=O)[C@@H](Cc1ccc(O)cc1)NC(=O)CNC(=O)CNC(=O)CCOCCOCCOCCNC(=O)CN1CCN(CC(=O)O)CCN(CC(=O)O)CC1)[C@H](C)O)C(=O)N[C@H](CC(N)=O)C(=O)N1CCC[C@@H]1C(=O)O [gallium-68 labelled]", "test system": "male C57BL/6 mice", "setting": "intravenous, 1.85 MBq, 60 min, with: antibody blocking", "scale": "reference: tumour over lung", "quantity": "tumour-to-tissue ratio", "value": "4.25 ± 0.92"}
{"Compound": "CCCCCCCCCCCCCCCC(=O)N[C@@H](CCC(=O)NCCOCCOCCC(=O)NCCOCCOCCC(=O)NCCCC[C@H](NC(=O)[C@H](CC(=O)O)NC(=O)[C@H](CC(C)C)NC(=O)[C@H](Cc1ccc(O)cc1)NC(=O)[C@H](CCCCN)NC(=O)[C@H](CO)NC(=O)[C@H](Cc1ccc(O)cc1)NC(=O)[C@H](CC(=O)O)NC(=O)[C@H](CO)NC(=O)[C@@H](NC(=O)[C@H](Cc1ccccc1)NC(=O)[C@@H](NC(=O)CNC(=O)[C@H](CCC(N)=O)NC(=O)[C@@H](CO)NC(=O)[C@@H](N)Cc1c[nH]cn1)[C@@H](C)O)[C@@H](C)O)C(=O)N[C@@H](CCCNC(=N)N)C(=O)N[C@@H](CCCNC(=N)N)C(=O)N[C@@H](C)C(=O)N[C@@H](CCC(N)=O)C(=O)N[C@@H](CC(=O)O)C(=O)N[C@@H](Cc1ccccc1)C(=O)N[C@H](C(=O)N[C@@H](CCC(N)=O)C(=O)N[C@@H](Cc1c[nH]c2ccccc12)C(=O)N[C@@H](CC(C)C)C(=O)N[C@@H](CC(C)C)C(=O)N[C@@H](CC(N)=O)C(=O)N[C@H](C(=O)NCC(=O)NCC(=O)N1CCC[C@H]1C(=O)N[C@@H](CO)C(=O)N[C@@H](CO)C(=O)NCC(=O)N[C@@H](C)C(=O)N1CCC[C@H]1C(=O)N1CCC[C@H]1C(=O)N1CCC[C@H]1C(=O)N[C@@H](CO)C(N)=O)[C@@H](C)O)C(C)C)C(=O)O", "test": "refers to: AST", "test system": "rhesus monkey, male", "setting": "subcutaneous, 20 µg/kg once daily, 28 days", "quantity": "serum enzyme activity", "value": "37.6 ± 5.9 U/L"}
{"Compound": "CC[C@H](C)[C@H](NC(=O)[C@H](CCCCN)NC(=O)CNC(=O)[C@H](CC(C)C)NC(=O)[C@H](Cc1ccccc1)NC(=O)[C@H](CCCCN)NC(=O)[C@H](CO)NC(=O)[C@H](Cc1ccccc1)NC(=O)[C@H](Cc1c[nH]c2ccccc12)NC(=O)[C@H](CCC(N)=O)NC(=O)[C@@H](NC(=O)[C@H](Cc1ccccc1)NC(=O)CCCCCNC(=O)CN1CCN(CC(=O)O)CCN(CC(=O)O)CCN(CC(=O)O)CC1)C(C)C)C(=O)N[C@@H](CCC(=O)O)C(=O)N1CCC[C@H]1C(=O)N[C@@H](CC(=O)O)C(=O)N[C@H](C(=O)N[C@@H](CO)C(=O)N[C@@H](CCC(N)=O)C(=O)N[C@H](C(=O)N[C@@H](CCC(N)=O)C(=O)N[C@@H](CC(=O)O)C(=O)N1CCC[C@H]1C(=O)N[C@@H](CC(N)=O)C(=O)N[C@@H](CC(=O)O)C(=O)N[C@@H](CCC(N)=O)C(=O)N[C@@H](Cc1ccc(O)cc1)C(=O)N[C@@H](CCC(=O)O)C(=O)N1CCC[C@H]1C(=O)N[C@@H](Cc1ccccc1)C(=O)O)C(C)C)C(C)C [copper-64 labelled]", "test system": "BALB/c mice, male, CT26 tumour-bearing, large intestine", "setting": "2 h, vehicle-treated", "quantity": "tissue uptake", "value": "4.48 ± 1.4 %ID/g"}
{"Compound": "CC(C)[C@H]1NC(=O)C[C@H]2/C=C/CCSSC[C@@H](NC1=O)C(=O)N[C@H](Cc1cccc3ccccc13)C(=O)NCC(=O)O2", "tested on": "MAP2K2 (Homo sapiens, UniProt P36507)", "setting": "10 µM", "quantity": "inhibition", "value": "-0.277%"}
{"Compound": "O=C1NC(=O)c2c1c1cc(F)c[n+]3c1c1c2c2cc(O)ccc2[n]1[Ru-4]312([N]=C=S)[S+]3CC[S+]1CC[S+]2CC3 (stereo not shown)", "tested on": "HCK (Homo sapiens, UniProt P08631)", "test": "enzyme activity", "setting": "100 nM, human enzyme, with: 10 µM ATP", "scale": "reference: untreated", "quantity": "remaining activity", "value": "15%"}
{"Compound": "COc1ccccc1-c1n[nH]c2nc(NC3CCN(C(=O)Cc4ccc(F)cc4F)CC3)ncc12", "test": "bead binding, competition bead pull-down, refers to: LINJ.06.0030", "test system": "Leishmania donovani axenic amastigote extract", "setting": "10 µM", "scale": "reference: vehicle", "quantity": "relative abundance", "value": 0.65}
{"Compound": "Cc1nc2cccc(OCC(C)(C)C(=O)NC(C)C)c2c(N)c1C(=O)[O-].[Na+]", "tested on": "Salmonella typhimurium", "test": "Ames plate incorporation", "test system": "TA98", "setting": "0.32 mg/plate, with: with rat liver S9", "quantity": "revertant colonies", "value": "39 ± 6 colonies/plate"}
{"note": "Some of these lines once more:"}
{"Compound": "Cc1nc2cccc(OCC(C)(C)C(=O)NC(C)C)c2c(N)c1C(=O)[O-].[Na+]", "tested on": "Salmonella typhimurium", "test": "Ames plate incorporation", "test system": "TA98", "setting": "0.32 mg/plate, with: with rat liver S9", "quantity": "revertant colonies", "value": "39 ± 6 colonies/plate"}
